# Measurements of several laboratories.
# Each line is one published result; not all experiments were run side by side. “And” joins repeats or separate records; there may be more than shown. Numbers after ± are the reported error.
Structure (SMILES),assay,system,conditions,scale,endpoint,result
CC(C)C[C@@H](NC(=O)[C@@H](CCCNC(=N)N)NC(=O)[C@@H](Cc1c[nH]cn1)NC(=O)[C@@H](Cc1c[nH]c2ccccc12)NC(=O)[C@@H](Cc1c[nH]cn1)NC(=O)[C@@H](Cc1ccccc1)NC(=O)[C@H](NC(=O)[C@@H](Cc1ccc(O)cc1)NC(=O)CNC(=O)CNC(=O)CCOCCOCCOCCNC(=O)CN1CCN(CC(=O)O)CCN(CC(=O)O)CC1)[C@H](C)O)C(=O)N[C@H](CC(N)=O)C(=O)N1CCC[C@@H]1C(=O)O [gallium-68 labelled],,male C57BL/6 mice,"intravenous, 1.85 MBq, 60 min, added: antibody blocking",relative to: tumour over muscle,tumour-to-tissue ratio,8.06 ± 1.9
CSCC[C@H](NC(=O)[C@H](CC(N)=O)NC(=O)[C@@H](N)Cc1ccccc1)C(=O)N[C@@H](CCC(N)=O)C(=O)N[C@@H](C)C(=O)N[C@@H](CCC(N)=O)C(=O)N[C@@H](CCCNC(=N)N)C(=O)N[C@@H](CCCNC(=N)N)C(=O)N[C@@H](Cc1ccccc1)C(=O)N[C@@H](Cc1ccc(O)cc1)C(=O)N[C@@H](CCC(=O)O)C(=O)N[C@@H](C)C(=O)N[C@@H](CC(C)C)C(=O)N[C@@H](Cc1c[nH]cn1)C(=O)N[C@@H](CC(=O)O)C(=O)NCC(=O)NCC(=O)NCC(=O)NCC(=O)N[C@@H](CO)C(=O)N[C@@H](C)C(=O)N[C@@H](CCC(=O)O)C(=O)N[C@@H](C)C(=O)N[C@@H](CCC(=O)O)C(=O)N[C@@H](C)C(=O)N[C@@H](CCCCN)C(=O)N[C@@H](C)C(=O)N[C@@H](CCCCN)C(=O)N[C@@H](C)C(=O)N[C@@H](CCC(=O)O)C(=O)N[C@@H](C)C(=O)N[C@@H](CCC(=O)O)C(=O)N[C@@H](C)C(=O)N[C@@H](CCCCN)C(=O)N[C@@H](C)C(=O)N[C@@H](CCCCN)C(=O)O,,EAK peptide fibrils,"overnight, 37 °C, PBS, added: EAK to compound ratio 20:1",,incorporation into fibrils,58%
O=C(O)CCCN1CCN2CCN(CC1)CC(=O)[O][Al]([18F])[O]C(=O)C2,,"Sprague-Dawley rat, normal, intestines and stomach",10 min,,bowel uptake,1.2 ± 0.3 %ID
COCCOCCOCCOc1ccc(/C=C/C2=[N+]3C(=C(c4cc(OC)cc(OC)c4)c4c(C)c(I)c(/C=C/c5ccc(OCCOCCOCCOC)cc5)n4[B-]3(F)F)C(C)=C2I)cc1,,DMSO,,relative to: methylene blue,fluorescence quantum yield,0.2 and 0.17
CC[C@H](C)[C@H](NC(=O)[C@H](CCCCN)NC(=O)CNC(=O)[C@H](CC(C)C)NC(=O)[C@@H](NC(=O)[C@H](C)NC(=O)[C@H](CCCCN)NC(=O)CNC(=O)[C@H](C)NC(=O)CNC(=O)[C@H](CCCCN)NC(=O)[C@H](CCSC)NC(=O)[C@H](CCCCN)NC(=O)[C@@H](NC(=O)[C@H](Cc1c[nH]c2ccccc12)NC(=O)[C@H](CC(C)C)NC(=O)[C@H](CCC(N)=O)NC(=O)[C@H](CCCCN)NC(=O)[C@H](CC(C)C)NC(=O)[C@@H](N)CC(C)C)[C@@H](C)O)C(C)C)C(=O)N[C@@H](CCCCN)C(=O)NCC(=O)N[C@@H](CC(C)C)C(=O)N[C@@H](CC(C)C)C(=O)O,acrylamide quenching,"DOPC vesicles, 250 µM lipid","2 µM, added: acrylamide",,Stern-Volmer constant,1.67 ± 0.19 M⁻¹
CSCC[C@H](NC(=O)[C@H](Cc1ccc(O)cc1)NC(=O)[C@@H](CC(=O)O)NC(=O)CN1CCN(CC(=O)O)CCN(CC(=O)O)CCN(CC(=O)O)CC1)C(=O)NCC(=O)N[C@@H](Cc1c[nH]c2ccccc12)C(=O)N[C@@H](CCSC)C(=O)N[C@@H](CC(=O)O)C(=O)N[C@@H](Cc1ccccc1)C(N)=O,,"MF1 nude mouse, male, CA20948 xenograft","intravenous, 0.2 µg, 4 h, 111In-labelled",relative to: tumour over kidney,tumour-to-kidney ratio,0.2
COc1cc(C(=O)NCCOCCOCCOCCNC(=O)c2ccc([18F])nc2)ccc1NC(=O)C1NC(CC(C)(C)C)C(C#N)(c2ccc(Cl)cc2F)C1c1cccc(Cl)c1F (stereo not drawn),,"athymic male mice, HepG2 xenograft",4 h,relative to: tumour over muscle,tumour-to-tissue ratio,2.49 ± 0.58
COc1cc2ccnc(Cc3ccc(O[11CH3])c(OC)c3)c2cc1OC,,"Sprague-Dawley rat, cortex","i.v., 5 min",,brain uptake,0.144 %ID/g
CCCCCCCC/C=C\CCCCCCCCOP(O)(O)=S.N,,"mouse, male, irradiated","subcutaneous, single dose 24 h after irradiation, added: 15.6 Gy partial-body irradiation",,Vz/F,1.28 L/kg
CSCC[C@H](NC(=O)[C@H](CO)NC(=O)[C@H](Cc1ccc(O)cc1)NC(=O)[C@@H](N)CO)C(=O)N[C@@H](CCC(=O)O)C(=O)N[C@@H](Cc1c[nH]cn1)C(=O)N[C@@H](Cc1ccccc1)C(=O)N[C@@H](CCCNC(=N)N)C(=O)N[C@@H](Cc1c[nH]c2ccccc12)C(=O)NCC(=O)N[C@@H](CCCCN)C(=O)N1CCC[C@H]1C(=O)N[C@H](C(=O)NCC(=O)N[C@@H](CCCCN)C(=O)N[C@@H](CCCCN)C(=O)N[C@@H](CCCNC(=N)N)C(=O)N[C@@H](CCCNC(=N)N)C(=O)N1CCC[C@H]1C(=O)N[C@H](C(=O)N[C@@H](CCCCN)C(=O)N[C@H](C(=O)N[C@@H](Cc1ccc(O)cc1)C(=O)N1CCC[C@H]1C(=O)N[C@@H](CC(=O)O)C(=O)NCC(=O)N[C@@H](C)C(=O)N[C@@H](CCC(=O)O)C(=O)N[C@@H](CC(=O)O)C(=O)N[C@@H](CCC(=O)O)C(=O)N[C@@H](CC(C)C)C(=O)N[C@@H](C)C(=O)N[C@@H](CCC(=O)O)C(=O)N[C@@H](C)C(=O)N[C@@H](Cc1ccccc1)C(=O)N1CCC[C@H]1C(=O)N[C@@H](CC(C)C)C(=O)N[C@@H](CCC(=O)O)C(=O)N[C@@H](Cc1ccccc1)C(=O)O)C(C)C)C(C)C)C(C)C,,"healthy human subjects, plasma","subcutaneous, 40 IU twice weekly, day 15, repository corticotropin injection",,AUC(0-last),0.415 ng·h/mL
CC[C@H](C)[C@H](NC(=O)[C@H](CCC(=O)O)NC(=O)[C@H](CCC(=O)O)NC(=O)[C@H](Cc1ccccc1)NC(=O)[C@H](CC(=O)O)NC(=O)CNC(=O)[C@H](CC(N)=O)NC(=O)CNC(=O)CNC(=O)CNC(=O)CNC(=O)[C@@H]1CCCN1C(=O)[C@H](CCCNC(=N)N)NC(=O)[C@@H]1CCCN1C(=O)[C@H](N)Cc1ccccc1)C(=O)N1CCC[C@H]1C(=O)N[C@@H](CCC(=O)O)C(=O)N[C@@H](CCC(=O)O)C(=O)N[C@@H](Cc1ccc(O)cc1)C(=O)N[C@@H](CC(C)C)C(=O)O,LC-MS/MS,human plasma,"-20 to 25 °C, three freeze-thaw cycles, nominal 240.0 ng/mL",,concentration,239 ± 4.5 ng/mL
CC(C)C[C@@H]1NC(=O)C[C@@H](C(=O)N[C@@H](Cc2c[nH]c3ccccc23)C(=O)N[C@@H](CC(N)=O)C(=O)N[C@@H](C)C(=O)N2CCC[C@H]2C(=O)NCC(=O)N[C@@H](Cc2c[nH]c3ccccc23)C(=O)N[C@@H](Cc2ccccc2)C(=O)O)NC(=O)[C@H](C)NC(=O)[C@H](CCC(N)=O)NC(=O)[C@H](C(C)C)NC(=O)[C@H](C)NC(=O)[C@H](C(C)C)NC(=O)[C@H](C(C)C)NC1=O,HPLC,,"3 h, 95 °C",,thermal stability,stable
CCCCCCCC(=O)OC[C@H](NC(=O)[C@H](CO)NC(=O)CN)C(=O)N[C@@H](Cc1ccccc1)C(=O)N[C@@H](CC(C)C)C(=O)N[C@@H](CO)C(=O)N1CCC[C@H]1C(=O)N[C@@H](CCC(=O)O)C(=O)N[C@@H](Cc1cnc[nH]1)C(=O)N[C@@H](CCC(N)=O)C(=O)N[C@@H](CCCNC(=N)N)C(=O)N[C@H](C(=O)N[C@@H](CCC(N)=O)C(=O)N[C@@H](CCC(N)=O)C(=O)N[C@@H](CCCNC(=N)N)C(=O)N[C@@H](CCCCN)C(=O)N[C@@H](CCC(=O)O)C(=O)N[C@@H](CO)C(=O)N[C@@H](CCCCN)C(=O)N[C@@H](CCCCN)C(=O)N1CCC[C@H]1C(=O)N1CCC[C@H]1C(=O)N[C@@H](C)C(=O)N[C@@H](CCCCN)C(=O)N[C@@H](CC(C)C)C(=O)N[C@@H](CCC(N)=O)C(=O)N1CCC[C@H]1C(=O)N[C@@H](CCCNC(=N)N)C(=O)O)C(C)C,ELISA,"healthy humans, plasma","intravenous infusion, 1 µg/kg/h, 210 min",,clearance,5.4 ± 2.8 mL/min/kg
CC[C@H](C)[C@H](NC(=O)[C@H](Cc1ccc(O)cc1)NC(=O)[C@@H](NC(=O)[C@H](CCCNC(=N)N)NC(=O)[C@@H](N)CC(=O)O)C(C)C)C(=O)N[C@@H](Cc1c[nH]cn1)C(=O)N1CCC[C@H]1C(=O)N[C@@H](Cc1ccccc1)C(=O)N[C@@H](Cc1c[nH]cn1)C(=O)N[C@@H](CC(C)C)C(=O)N[C@@H](CC(C)C)C(=O)N[C@H](C(=O)N[C@@H](Cc1ccc(O)cc1)C(=O)N[C@@H](CO)C(=O)O)C(C)C,countercurrent distribution,sec-butanol/carbonate buffer,pH 10.5,,distribution coefficient,0.96
C=Cc1cc(O)cc2nc(-c3ccc(O)c([76Br])c3)oc12,,"female C57BL/6 mouse, ovaries","3 h, high dose, added: estradiol 20 µg blocking",,tissue uptake,0.1 ± 0.04 %ID/g
CC[C@H](C)C(=O)N1CCC(NC(=O)Nc2ccc(OC(F)(F)F)c(F)c2)CC1,,healthy volunteers,"oral, 16 mg single dose",,subjects with UTI TEAE,0%
CSCC[C@H](NC(=O)CNC(=O)[C@H](CC(=O)O)NC(=O)[C@@H](NC(=O)[C@@H](NC(=O)[C@@H](NC(=O)CNC(=O)[C@H](CCC(N)=O)NC(=O)[C@H](CCSC)NC(=O)[C@H](CC(=O)O)NC(=O)[C@H](C)NC(=O)[C@H](C)NC(=O)[C@@H](NC(=O)[C@H](CO)NC(=O)[C@@H](N)CC(C)C)[C@@H](C)O)C(C)C)C(C)C)[C@@H](C)O)C(=O)N[C@@H](C)C(=O)N[C@@H](CO)C(=O)NCC(=O)N[C@@H](CC(C)C)C(=O)N[C@@H](CC(=O)O)C(=O)N[C@@H](CCCCN)C(=O)N[C@@H](CC(=O)O)C(=O)N[C@@H](Cc1ccc(O)cc1)C(=O)N[C@@H](CC(C)C)C(=O)N[C@@H](CCCCN)C(=O)N1CCC[C@H]1C(=O)N[C@@H](CC(=O)O)C(=O)N[C@@H](CC(=O)O)C(=O)O,,"human patients, serum","intravenous infusion, 3 mg/kg",,distribution half-life,1.14 min
C[C@@H]1CC[C@H]2[C@@H](C)CO[C@@H]3O[C@@]4(C)CC[C@@H]1[C@]32OO4,,"male Sprague-Dawley rat, plasma","oral, 100 mg/kg",,AUC(0-inf),3160 ng·h/mL
O=C(O)CCC(NP(=O)(O)OCCC[C@@H](NC(=O)CCC(NC(=O)CCCCCNC(=O)CCCCCNC(=O)c1ccc([18F])cc1)C(=O)O)C(=O)O)C(=O)O (stereo partly drawn),radioactivity,"mouse, CWR22Rv1 xenograft, tumour",1 h,,tumour uptake,2.92%
CN[C@](C)(C[18F])C(=O)O,,"SCID mouse A549 xenograft, bone",60 min post injection,,tissue uptake,1.4 ± 0.7 %ID/g
CC(=CCC(O)C(C)=Cc1csc(C)n1)CC=CC(C)C(O)C(C)C(=O)C(C)(C)C(O)CC(=O)O (stereo not drawn),,"human, plasma","intravenous infusion, 15.0 mg/m2 KOS-1584, 3 h infusion, cycle 1",,half-life,25.7 ± 4.09 h

# For quick reference, copied from above:
Structure (SMILES),assay,system,conditions,scale,endpoint,result
CCCCCCCC(=O)OC[C@H](NC(=O)[C@H](CO)NC(=O)CN)C(=O)N[C@@H](Cc1ccccc1)C(=O)N[C@@H](CC(C)C)C(=O)N[C@@H](CO)C(=O)N1CCC[C@H]1C(=O)N[C@@H](CCC(=O)O)C(=O)N[C@@H](Cc1cnc[nH]1)C(=O)N[C@@H](CCC(N)=O)C(=O)N[C@@H](CCCNC(=N)N)C(=O)N[C@H](C(=O)N[C@@H](CCC(N)=O)C(=O)N[C@@H](CCC(N)=O)C(=O)N[C@@H](CCCNC(=N)N)C(=O)N[C@@H](CCCCN)C(=O)N[C@@H](CCC(=O)O)C(=O)N[C@@H](CO)C(=O)N[C@@H](CCCCN)C(=O)N[C@@H](CCCCN)C(=O)N1CCC[C@H]1C(=O)N1CCC[C@H]1C(=O)N[C@@H](C)C(=O)N[C@@H](CCCCN)C(=O)N[C@@H](CC(C)C)C(=O)N[C@@H](CCC(N)=O)C(=O)N1CCC[C@H]1C(=O)N[C@@H](CCCNC(=N)N)C(=O)O)C(C)C,ELISA,"healthy humans, plasma","intravenous infusion, 1 µg/kg/h, 210 min",,clearance,5.4 ± 2.8 mL/min/kg
CC(C)C[C@@H]1NC(=O)C[C@@H](C(=O)N[C@@H](Cc2c[nH]c3ccccc23)C(=O)N[C@@H](CC(N)=O)C(=O)N[C@@H](C)C(=O)N2CCC[C@H]2C(=O)NCC(=O)N[C@@H](Cc2c[nH]c3ccccc23)C(=O)N[C@@H](Cc2ccccc2)C(=O)O)NC(=O)[C@H](C)NC(=O)[C@H](CCC(N)=O)NC(=O)[C@H](C(C)C)NC(=O)[C@H](C)NC(=O)[C@H](C(C)C)NC(=O)[C@H](C(C)C)NC1=O,HPLC,,"3 h, 95 °C",,thermal stability,stable
